# Assay results pooled from the literature.
# Parts stem from different laboratories: compare values within a part only.

# Study 1 — cell line: normal-adjacent organoid sample E; method: CellTiter-Glo; concentration: 1 µM; setting: replicate mean; reference: DMSO
SMILES,viability [%]
CN1CCN(c2cnc3c(C4CCN(C(=O)c5ccc(OC(F)(F)F)cc5N)CC4)ncnc3c2)CC1,96.3
N#CC1(c2ccccn2)CCN(Cc2cc(C(=O)O)c(=O)n3ccccc23)CC1,94.5
C[C@@H](NC(=O)Nc1cc2[nH]ncc2c(CO)n1)c1ccccc1,62.5
Cn1nc(C(F)(F)F)cc1-c1cnc(N2CCc3cc(S(=O)(=O)Nc4c(F)cc(Cl)cc4F)cc(N4CCCC4=O)c32)nc1,121

# Study 2 — method: RNA Bind-n-Seq; form: RNA; medium: in vitro; concentration: 100 nM; reference: input RNA pool; direction: higher = stronger binding
# Target: RING finger protein unkempt homolog, zinc fingers 1-6, SBP tag (UNK, Homo sapiens, UniProt Q9C0B0, residues 30-357)
# Sequence of UniProt Q9C0B0 (30-357, looked up): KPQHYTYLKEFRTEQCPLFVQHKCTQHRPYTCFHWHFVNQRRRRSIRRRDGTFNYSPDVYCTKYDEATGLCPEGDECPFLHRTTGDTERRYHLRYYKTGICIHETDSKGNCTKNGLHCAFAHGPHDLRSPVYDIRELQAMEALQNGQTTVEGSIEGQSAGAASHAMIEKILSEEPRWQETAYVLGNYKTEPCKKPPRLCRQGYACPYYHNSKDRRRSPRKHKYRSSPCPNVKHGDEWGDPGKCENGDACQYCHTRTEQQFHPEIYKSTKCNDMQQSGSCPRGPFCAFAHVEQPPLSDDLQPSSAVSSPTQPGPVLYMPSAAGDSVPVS
# Setting: RNA with constant flanks, vertebrate orthologous sites, ends assumed
# Constant ends, left off below: GGGAGUUCUACAGUCCGACGAUC … CAACAGAGGAUUGAGCAUCA
Oligonucleotide,bound/input enrichment [ratio]
CAUUUUCUUAUUUUAGGUAUCAUUGCCCAAUGCCUAAGAUCUUUUAUGUUCAGCUAACGGUAGGAAAUAACGAGUUUUUUGGUGAAGGAAAGACUCGACAAGCUGCAAGGCACAAUGCUG,0.613
UCCCAGCACUUCGAUAAAAAGCGUGGACUGGUUGCUUGUAUUUUCCUUAUUCUUUUUAAUUAGUUUUAUUAUGUAUGCUACUAUUCGAACUGAGAGCAUUCGGUGGCUAAUUCCAGGACA,1.87
UUGCCUACAAUAAUGAAAACCUAAAGGAAUUUUUUAUUUUUAAUUUUCCCCUUAGGCAUAUUUAGACAUCUUUUUUCCAGGCAGAUCAUUCAGAGUGUGCGAGUGUGUGUGCACAUGUUA,0.755
AAGAACAGGAGCAGCAUAGACUGAGCUUUGGGGAAAUAAGCUUUGCUUUUUAUAUUUAAAUAGGAUACUUUUAUAUGAUGGGUGCUUUGAGUGUGAAUGCAGCAGGCUCUCCAUUUCAGA,1.8
CAGCUGACUCACUCAUUGGGAGAGCUGCACAUAUAGCAGUUCUUGAUUCAGAAAUAUUUUUAGAGAAAUUCUUUCUGGUUGCUGCCCUCAAAUAUUUCCAGUAGUAUAAAACAUUGUUAA,1.04
ACAGAGGCACUUUCUCCUUUGGUCUUUCAUUGUAAGAAGAAAUGGACCCAUGCACAUUUAUAUAGCUUUCUAAUAGCAUUAAAACCAAUGCCUUUCUAGACUCCUAUUUUUGAUGUAUAU,0.492
AUCCUUUCGUACUAUCCCUGGCCACAGCCGAGGGCCCGAUGUUUCACUGAGGACCUGCAUUUAAGACAUUUUUUAAAUUGCUGUACAGGAGGAGAUGCAUCUAAAAUAGUAUCUCAACGC,0.409
UCAACUCAGGUUUUAUUUAUUUUGAAAUUAUCAAUUGUAUAAGUCUAACUUAUUGACAAACAUGAUGGGAUUUAAUUUUUUUUAUUGUUGAAACCUUAACAGGCAAUUCAUAUUCCCAGC,0.295

# Study 3 — method: protein binding microarray; form: double-stranded DNA, one strand shown; medium: in vitro; concentration: not given; reference: not given; direction: higher = stronger binding
# Target: Histone acetyltransferase KAT6A, winged helix 1, GST fusion (KAT6A, Homo sapiens, UniProt Q92794, residues 1-85)
# Setting: 8-mer, flanks averaged, mean of 2 arrays, mostly near background
# Construct (chain): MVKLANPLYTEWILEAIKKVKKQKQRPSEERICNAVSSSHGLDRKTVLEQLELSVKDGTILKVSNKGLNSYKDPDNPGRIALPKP
Oligonucleotide,E-score
CCCGACGC,0.459
GAAAACTA,-0.017
CCCTAAAG,-0.026
ACCTACGT,-0.0597
ATTGACTC,-0.156
AGATAAAA,-0.0528
CCGCACTC,0.235
AGGATCTC,-0.226

# Study 4 — effect on: enzyme activity; mode: inhibitor; concentration: 0.5 µM; reference: control
# Target: Cyclin-dependent kinase 5, with p35 (CDK5, Homo sapiens, UniProt Q00535)
# Sequence of UniProt Q00535 (whole entry, looked up): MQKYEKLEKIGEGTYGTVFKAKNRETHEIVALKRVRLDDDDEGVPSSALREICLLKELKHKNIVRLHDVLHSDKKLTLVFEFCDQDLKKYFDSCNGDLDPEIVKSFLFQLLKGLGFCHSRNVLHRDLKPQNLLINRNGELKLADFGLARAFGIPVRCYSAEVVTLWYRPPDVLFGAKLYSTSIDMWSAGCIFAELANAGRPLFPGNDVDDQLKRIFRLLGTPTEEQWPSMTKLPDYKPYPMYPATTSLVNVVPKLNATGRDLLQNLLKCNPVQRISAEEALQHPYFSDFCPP
Compound,remaining activity [%]
C[C@@H](N)[C@H]1CC[C@H](C(=O)Nc2ccncc2)CC1,96.6
O=c1c(-c2ccc(F)cc2)c(-c2ccncc2)[nH]n1-c1ccc(Cl)cc1,104
NC(=O)c1cccc(-c2cc(Nc3ccc(OC(F)(F)F)cc3)ncn2)c1,96
CC(C)N(CCC(=O)c1ccc2ccccc2c1)Cc1ccccc1,103
CCN(CC)CCCCN1c2ccccc2Oc2ccc(Cl)cc21,90.3

# For quick reference, copied from above (study 2):
Oligonucleotide,bound/input enrichment [ratio]
UCCCAGCACUUCGAUAAAAAGCGUGGACUGGUUGCUUGUAUUUUCCUUAUUCUUUUUAAUUAGUUUUAUUAUGUAUGCUACUAUUCGAACUGAGAGCAUUCGGUGGCUAAUUCCAGGACA,1.87
